Measured values of several laboratories.
Each numbered part is a random draw from the data of one study; scales do not carry over between parts. Substitutions count along the parent as printed.

Block 1
Target: Ras GTPase-activating protein-binding protein 1, full length (G3BP1, Homo sapiens, UniProt Q13283)
Sequence of UniProt Q13283 (whole entry, looked up): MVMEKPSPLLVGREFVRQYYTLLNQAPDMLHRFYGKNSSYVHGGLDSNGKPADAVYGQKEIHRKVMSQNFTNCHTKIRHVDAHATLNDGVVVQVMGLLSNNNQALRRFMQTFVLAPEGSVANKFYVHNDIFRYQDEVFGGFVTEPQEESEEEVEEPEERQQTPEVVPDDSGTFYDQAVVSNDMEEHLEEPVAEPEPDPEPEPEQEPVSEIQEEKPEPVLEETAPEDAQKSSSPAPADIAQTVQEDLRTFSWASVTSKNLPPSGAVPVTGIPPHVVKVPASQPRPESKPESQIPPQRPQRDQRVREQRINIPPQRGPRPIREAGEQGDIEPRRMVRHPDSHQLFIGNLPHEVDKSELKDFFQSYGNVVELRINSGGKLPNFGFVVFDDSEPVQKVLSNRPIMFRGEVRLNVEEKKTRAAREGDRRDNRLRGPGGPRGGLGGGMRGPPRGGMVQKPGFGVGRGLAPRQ
Technique: RNA Bind-n-Seq
Form: RNA
Sample: in vitro
Concentration: 200 nM
Setting: whole 134-nt RNA, ends assumed
Added: 150 mM LiCl
Baseline: input library
Direction: higher = stronger binding
Each molecule: 7-deaza-guanosine replaces G
`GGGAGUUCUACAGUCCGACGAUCUCCUGUGCUACACAUCGUAUGUACCGAAUCGGGGCCCCCGGGGCCCCCGGGGCCCCCGGAAAGUAUUAUGUUACGCCGUUCGGAUCUGCAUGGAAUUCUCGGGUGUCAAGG` gave a log2 enrichment of 0.432.
The log2 enrichment of `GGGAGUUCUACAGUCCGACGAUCUCCUGUGCUACACAUCGUAUGUACCGAAUCAAACCCCCAAAUUUUUUUAAAUUUUUAAAAAAGUAUUAUGUUACGCCGUUCGGAUCUGCAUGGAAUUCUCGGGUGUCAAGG` is reported as 1.21.
The log2 enrichment of `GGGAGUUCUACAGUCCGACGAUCCUCAAGUCCUGUGCUACACAUCGUAUGUACCGAAUCGGUUGGUUGGGUUGGGGAAAGUAUUAUGUUACGCCGUUCGGAUCUGCACUUCCAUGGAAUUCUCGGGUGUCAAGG` is reported as -0.256.
The log2 enrichment of `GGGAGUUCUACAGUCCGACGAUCUGCCUGCUCCGGGCCCCGUGCUGGCGCCUACGCACCUGCAGACAGAGCUGGUGCUGAGGUGCCAGAAGGAGACCGACUGUGACCUCUGUCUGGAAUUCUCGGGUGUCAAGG` is reported as -0.605.
`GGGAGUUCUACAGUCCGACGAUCAGUCCUGUGCUACACAUCGUAUGUACCGAAUCGGGAAAAGGGGAAAAGGGAAAAGGGGAAAGUAUUAUGUUACGCCGUUCGGAUCUGCACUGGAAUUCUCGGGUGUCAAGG` gave a log2 enrichment of 0.282.
`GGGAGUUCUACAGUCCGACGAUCUCAAGUCCUGUGCUACACAUCGUAUGUACCGAAUCGGAAAGGAAAGGAAAGGGGAAAGUAUUAUGUUACGCCGUUCGGAUCUGCACUUCCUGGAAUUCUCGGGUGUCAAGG` gave a log2 enrichment of -0.402.
`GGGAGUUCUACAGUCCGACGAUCCCUGUGCUACACAUCGUAUGUACCGAAUCGGGGUUUUUUGGGGUUUUUUGGGGUUUUUUGGAAAGUAUUAUGUUACGCCGUUCGGAUCUGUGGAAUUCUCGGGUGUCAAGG` has a log2 enrichment of 1.32.

Block 2
Target: BIRC6 UBC core domain (UniProt Q9NR09)
Technique: yeast two-hybrid
Sample: yeast
Setting: mostly zero background
Baseline: not given
Direction: higher = stronger interaction
B1: TRIM22 RING domain (UniProt Q8IYM9); chain VKVDIEKEVTCPICLELLTEPLSLDCGHSFCQACITAKIKESVIISRGESSCPVCQTRFQPGNLRP
B2: ANAPC11 RING domain (UniProt Q9NYG5); chain GICRMAFNGCCPDCKVPGDDCPLVWGQCSHCFHMHCILKWLHAQQVQQHCPMCRQEWKFKE
B3: RNF152 RING domain (UniProt Q8N8N0); chain ETLSQDSLLECQICFNYYSPRRRPKLLDCKHTCCSVCLQQMRTSQKDVRCPWCRGVTKLPPGFS
B4: DEF8 RING domain (UniProt Q6ZN54); chain AGRLGCSLTEIHTLFAKHIKLDCERCQAKGFVCELCREGDVLFPFDSHTSVCADCSAVFHRDCYYDNSTTCPKCARLSLRK
B5: RNF31 RING domain (UniProt Q96EP0); chain AFLRRLLAQECAVCGWALPHNRMQALTSCECTICPDCFRQHFTIALKEKHITDMVCPACGRPDLTDDTQLL
B6: MKRN2 RING domain (UniProt Q9H000); chain FAFQASQDKVCSICMEVILEKASASERRFGILSNCNHTYCLSCIRQWRCAKQFENPIIKSCPECRVISEFVIPSV
B7: RNF187 RING domain (UniProt Q5TA31); chain ALPAGPAEAACALCQRAPREPVRADCGHRFCRACVVRFWAEEDGPFPCPECADDCWQRAVEP
B8: RNF122 RING domain (UniProt Q9H9V4); chain AKKLQLYGQTCAVCLEDFKGKDELGVLPCQHAFHRKCLVKWLEVRCVCPMCNKPIASPSEAT
Construct (chain): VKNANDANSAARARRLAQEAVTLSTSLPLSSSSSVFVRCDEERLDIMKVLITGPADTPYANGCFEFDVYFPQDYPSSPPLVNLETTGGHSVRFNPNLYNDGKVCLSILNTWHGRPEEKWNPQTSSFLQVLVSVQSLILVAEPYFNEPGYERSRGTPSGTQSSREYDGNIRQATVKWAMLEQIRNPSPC
`B1 (TRIM22 RING domain)` — result for “lacZ reporter activity”: 0.
`B2 (ANAPC11 RING domain)` — result for “lacZ reporter activity”: 0.
For `B3 (RNF152 RING domain)`, “lacZ reporter activity” read 0.
For `FVKTVEDKYKCEKCHLVLCSPKQTECGHRFCESCMAALLSSSSPKCTACQESIVKDKVF (TRAF3 RING domain (UniProt Q13114))`, “lacZ reporter activity” read 0.
`B4 (DEF8 RING domain)` — result for “lacZ reporter activity”: 0.
Under “lacZ reporter activity”, `B5 (RNF31 RING domain)` is recorded as 0.
`B6 (MKRN2 RING domain)` — result for “lacZ reporter activity”: 0.
For `B7 (RNF187 RING domain)`, “lacZ reporter activity” read 0.
Under “lacZ reporter activity”, `B8 (RNF122 RING domain)` is recorded as 0.
`RYRQMEERITCPICIDSHIRLVFQCGHGACAPCGSALSACPICRQPIRDRIQIF (MIB2 RING domain (UniProt Q96AX9))` — result for “lacZ reporter activity”: 0.

Block 3
Target: Histone acetyltransferase KAT6A, winged helix 2, GST fusion (KAT6A, Homo sapiens, UniProt Q92794, residues 85-181)
Technique: protein binding microarray
Form: double-stranded DNA, one strand shown
Sample: in vitro
Concentration: not given
Setting: 8-mer, flanks averaged, mean of 2 arrays, mostly near background
Baseline: not given
Direction: higher = stronger binding
Construct (chain): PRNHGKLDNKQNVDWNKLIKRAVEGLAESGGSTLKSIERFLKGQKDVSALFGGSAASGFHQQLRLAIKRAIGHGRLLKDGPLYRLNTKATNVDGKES
With `AATTACCA` the E-score was -0.049.
The E-score of `GCAGCCGC` is reported as 0.181.
The E-score of `CCCCGGTC` is reported as 0.14.
For `ATCCTTCG`, the E-score was -0.0306.
`CAGCTTCA` has an E-score of 0.00828.
The E-score of `GAGTCCAC` is reported as -0.089.
`CATTCCCA` has an E-score of -0.0818.
For `CGGGCACA`, the E-score was 0.011.
`ACATTACA` gave an E-score of -0.235.
With `CATAATTA` the E-score was 0.0794.
`CGATATAG` gave an E-score of 0.0698.
`GCCTGCGA` has an E-score of 0.0808.
`AAGTATAG` has an E-score of -0.28.
The E-score of `GCGCATCC` is reported as -0.0597.
The E-score of `AGTCTCAT` is reported as -0.212.
For `CCGGCTTA`, the E-score was 0.155.
For `GACACTTA`, the E-score was -0.135.
The E-score of `CGCATTGC` is reported as 0.14.
`GATCCCGA` gave an E-score of 0.141.
`CCTTACTC` has an E-score of 0.00217.
The E-score of `GAGACGAA` is reported as 0.182.
`GACTAGCC` gave an E-score of -0.123.
The E-score of `CTCACCGA` is reported as 0.0948.
For `GTGAGTGA`, the E-score was -0.119.
The E-score of `GTCAAAGA` is reported as 0.115.

Block 4
Target: Phosphate system positive regulatory protein PHO4, full length, GST-tagged (PHO4, Saccharomyces cerevisiae, UniProt P07270, residues 1-312)
Technique: competition protein-binding microarray
Form: double-stranded DNA, one strand shown
Sample: in vitro
Concentration: 2 µM
Setting: whole 60-bp probe, lowest competitor level
Added: Cbf1 competitor, 0.05 µM
Direction: higher = stronger binding
Residues (chain): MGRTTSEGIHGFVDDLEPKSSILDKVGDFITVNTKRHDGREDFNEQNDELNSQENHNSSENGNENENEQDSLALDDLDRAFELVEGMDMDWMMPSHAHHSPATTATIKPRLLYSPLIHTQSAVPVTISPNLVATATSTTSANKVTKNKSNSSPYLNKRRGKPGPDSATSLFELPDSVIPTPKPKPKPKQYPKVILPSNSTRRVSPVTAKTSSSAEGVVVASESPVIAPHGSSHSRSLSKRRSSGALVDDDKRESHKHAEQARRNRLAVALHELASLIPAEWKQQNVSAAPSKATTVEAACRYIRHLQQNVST
For `AGAATAATGTAAGGTACCGTGGGTACCGTACCATCAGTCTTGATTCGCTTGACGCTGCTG`, the fluorescence intensity was 6120 a.u.
`CAGCTTCAACCAAATAACGTGGGTATTCTGGAACGAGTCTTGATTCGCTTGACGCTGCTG` has a fluorescence intensity of 10600 a.u.
The fluorescence intensity of `CTACTACAGCGTAGGCACGGGTGCATACATCTTCAAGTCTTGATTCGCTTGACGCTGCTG` is reported as 10300 a.u.
`CTAACGAAGGTTTGGTCAGTGGGTGACAAGCCAAGTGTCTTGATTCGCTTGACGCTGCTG` gave a fluorescence intensity of 4170 a.u.
`TGCGCAACAACTTTTCACGTGGTGTTATGTCTAGAAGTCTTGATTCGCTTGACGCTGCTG` gave a fluorescence intensity of 13300 a.u.
With `GCTTTAGTTGCTCTTCGCGTGGTGAATATTTGCAGAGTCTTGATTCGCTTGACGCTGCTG` the fluorescence intensity was 6270 a.u.
With `GTCGCTGCGCGCGATCATGCGTCTACGCGCTTCTGTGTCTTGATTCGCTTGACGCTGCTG` the fluorescence intensity was 5320 a.u.
The fluorescence intensity of `AAAAGAGGTACGTTGCGCGTGTTTCTAGGGAGAAGAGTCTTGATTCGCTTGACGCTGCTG` is reported as 8780 a.u.
`TGCTATTTATAGACGCGCGTGTCGGAATCAGGAAGCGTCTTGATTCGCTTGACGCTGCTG` has a fluorescence intensity of 10100 a.u.
`CGGGGTTAAGTTTGTCACTGGACTTGCTTGCAGCAGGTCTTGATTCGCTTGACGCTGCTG` gave a fluorescence intensity of 3270 a.u.
`AAATTACTAAGTTGTCCGGTGGGTGACGCCGTATGAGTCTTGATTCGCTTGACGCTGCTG` has a fluorescence intensity of 3410 a.u.
The fluorescence intensity of `AAATTACTAAGTTGCGAGGTGGGTGACGCCGTATGAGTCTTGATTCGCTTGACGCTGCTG` is reported as 4030 a.u.
The fluorescence intensity of `CGTCCTAGTGATTGTTGCGTGGGTGCCATGAGGAAGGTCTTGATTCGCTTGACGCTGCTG` is reported as 8340 a.u.
`AGAAGTTTACCAAAACACGTGCAAAGATCCTACGATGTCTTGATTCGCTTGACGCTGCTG` has a fluorescence intensity of 16000 a.u.
`AAGAAAGTTCCACTTCACGTTTCCCCAGCTTTCCGGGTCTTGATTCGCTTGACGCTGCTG` gave a fluorescence intensity of 8930 a.u.
`GACAAGTTACAACTGATCGTGACGGAGAACGGTAAGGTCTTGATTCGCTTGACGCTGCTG` gave a fluorescence intensity of 5450 a.u.

Block 5
Target: ABI1, truncated, D143A, DHFR fusion (Arabidopsis thaliana)
Technique: DHFR PCA, deep sequencing
Sample: yeast
Setting: methotrexate growth selection, single substitutions
Added: (+)-ABA 0.032 µM
Baseline: wild-type fitted maximum
Direction: higher = stronger binding
Starting sequence: PYL1, truncated, DHFR fusion (Arabidopsis thaliana); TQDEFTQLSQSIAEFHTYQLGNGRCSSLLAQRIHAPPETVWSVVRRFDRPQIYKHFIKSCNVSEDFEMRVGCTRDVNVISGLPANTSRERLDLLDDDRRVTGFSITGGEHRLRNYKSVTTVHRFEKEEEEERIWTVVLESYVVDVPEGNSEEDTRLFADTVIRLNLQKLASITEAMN; partner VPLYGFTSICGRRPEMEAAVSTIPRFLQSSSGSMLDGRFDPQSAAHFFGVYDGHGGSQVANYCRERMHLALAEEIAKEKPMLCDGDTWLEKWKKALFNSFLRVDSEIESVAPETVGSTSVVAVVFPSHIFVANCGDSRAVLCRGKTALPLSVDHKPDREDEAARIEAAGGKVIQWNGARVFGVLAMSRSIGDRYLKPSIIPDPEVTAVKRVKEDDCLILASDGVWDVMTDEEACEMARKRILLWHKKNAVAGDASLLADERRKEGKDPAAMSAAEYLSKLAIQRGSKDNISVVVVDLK
Under “relative binding score”, `A175V` is recorded as 0.685%.
`E127Q`: “relative binding score” 40%.
Under “relative binding score”, `H16P` is recorded as -5.16%.
Under “relative binding score”, `R123N` is recorded as 10.6%.
`M176Y`: “relative binding score” 1.15%.
Under “relative binding score”, `V62L` is recorded as 15.5%.
For `V142Y`, “relative binding score” read -5.47%.
Under “relative binding score”, `M68Q` is recorded as 2.74%.
`D153N`: “relative binding score” -2.96%.
`T120L`: “relative binding score” -3.21%.
`I52T` — result for “relative binding score”: 21.9%.
`T173R` — result for “relative binding score”: -1.72%.
`L8F`: “relative binding score” 27.1%.

A few entries again (block 5):
`E127Q`: “relative binding score” 40%.
`D153N`: “relative binding score” -2.96%.
Under “relative binding score”, `V62L` is recorded as 15.5%.
Under “relative binding score”, `A175V` is recorded as 0.685%.
Under “relative binding score”, `M68Q` is recorded as 2.74%.
`I52T` — result for “relative binding score”: 21.9%.
`T173R` — result for “relative binding score”: -1.72%.
Under “relative binding score”, `H16P` is recorded as -5.16%.
`M176Y`: “relative binding score” 1.15%.
